Measured values collected from several papers.
Each numbered part is a random draw from the data of one study; scales do not carry over between parts.
Chain of UniProt Q8IU85 (whole entry, looked up): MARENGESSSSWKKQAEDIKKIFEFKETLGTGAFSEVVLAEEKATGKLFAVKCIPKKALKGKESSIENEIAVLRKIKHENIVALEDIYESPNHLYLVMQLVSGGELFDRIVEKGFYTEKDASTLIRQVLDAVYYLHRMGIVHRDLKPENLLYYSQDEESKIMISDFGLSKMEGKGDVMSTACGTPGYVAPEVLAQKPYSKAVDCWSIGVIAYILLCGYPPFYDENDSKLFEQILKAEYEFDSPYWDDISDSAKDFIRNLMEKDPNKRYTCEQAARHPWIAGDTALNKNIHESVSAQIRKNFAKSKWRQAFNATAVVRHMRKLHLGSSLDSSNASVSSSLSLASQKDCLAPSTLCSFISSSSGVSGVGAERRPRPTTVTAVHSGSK
Chain of UniProt Q8NE63 (whole entry, looked up): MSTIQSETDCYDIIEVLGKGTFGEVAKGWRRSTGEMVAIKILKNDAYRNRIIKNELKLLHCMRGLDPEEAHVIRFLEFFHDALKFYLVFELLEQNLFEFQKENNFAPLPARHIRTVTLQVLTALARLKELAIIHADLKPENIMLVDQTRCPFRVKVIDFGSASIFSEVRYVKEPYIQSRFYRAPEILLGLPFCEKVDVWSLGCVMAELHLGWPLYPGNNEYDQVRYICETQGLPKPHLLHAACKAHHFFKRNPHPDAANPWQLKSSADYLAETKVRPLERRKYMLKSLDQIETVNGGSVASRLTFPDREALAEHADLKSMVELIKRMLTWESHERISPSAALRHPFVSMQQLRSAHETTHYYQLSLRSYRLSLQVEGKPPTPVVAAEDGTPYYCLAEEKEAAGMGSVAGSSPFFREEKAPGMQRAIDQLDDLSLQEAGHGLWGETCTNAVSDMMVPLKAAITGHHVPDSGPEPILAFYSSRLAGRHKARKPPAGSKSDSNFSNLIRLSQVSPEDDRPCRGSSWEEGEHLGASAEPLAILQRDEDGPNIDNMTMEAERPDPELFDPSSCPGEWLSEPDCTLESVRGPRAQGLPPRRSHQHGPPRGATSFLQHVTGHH
Chain of UniProt Q9BX84 (whole entry, looked up): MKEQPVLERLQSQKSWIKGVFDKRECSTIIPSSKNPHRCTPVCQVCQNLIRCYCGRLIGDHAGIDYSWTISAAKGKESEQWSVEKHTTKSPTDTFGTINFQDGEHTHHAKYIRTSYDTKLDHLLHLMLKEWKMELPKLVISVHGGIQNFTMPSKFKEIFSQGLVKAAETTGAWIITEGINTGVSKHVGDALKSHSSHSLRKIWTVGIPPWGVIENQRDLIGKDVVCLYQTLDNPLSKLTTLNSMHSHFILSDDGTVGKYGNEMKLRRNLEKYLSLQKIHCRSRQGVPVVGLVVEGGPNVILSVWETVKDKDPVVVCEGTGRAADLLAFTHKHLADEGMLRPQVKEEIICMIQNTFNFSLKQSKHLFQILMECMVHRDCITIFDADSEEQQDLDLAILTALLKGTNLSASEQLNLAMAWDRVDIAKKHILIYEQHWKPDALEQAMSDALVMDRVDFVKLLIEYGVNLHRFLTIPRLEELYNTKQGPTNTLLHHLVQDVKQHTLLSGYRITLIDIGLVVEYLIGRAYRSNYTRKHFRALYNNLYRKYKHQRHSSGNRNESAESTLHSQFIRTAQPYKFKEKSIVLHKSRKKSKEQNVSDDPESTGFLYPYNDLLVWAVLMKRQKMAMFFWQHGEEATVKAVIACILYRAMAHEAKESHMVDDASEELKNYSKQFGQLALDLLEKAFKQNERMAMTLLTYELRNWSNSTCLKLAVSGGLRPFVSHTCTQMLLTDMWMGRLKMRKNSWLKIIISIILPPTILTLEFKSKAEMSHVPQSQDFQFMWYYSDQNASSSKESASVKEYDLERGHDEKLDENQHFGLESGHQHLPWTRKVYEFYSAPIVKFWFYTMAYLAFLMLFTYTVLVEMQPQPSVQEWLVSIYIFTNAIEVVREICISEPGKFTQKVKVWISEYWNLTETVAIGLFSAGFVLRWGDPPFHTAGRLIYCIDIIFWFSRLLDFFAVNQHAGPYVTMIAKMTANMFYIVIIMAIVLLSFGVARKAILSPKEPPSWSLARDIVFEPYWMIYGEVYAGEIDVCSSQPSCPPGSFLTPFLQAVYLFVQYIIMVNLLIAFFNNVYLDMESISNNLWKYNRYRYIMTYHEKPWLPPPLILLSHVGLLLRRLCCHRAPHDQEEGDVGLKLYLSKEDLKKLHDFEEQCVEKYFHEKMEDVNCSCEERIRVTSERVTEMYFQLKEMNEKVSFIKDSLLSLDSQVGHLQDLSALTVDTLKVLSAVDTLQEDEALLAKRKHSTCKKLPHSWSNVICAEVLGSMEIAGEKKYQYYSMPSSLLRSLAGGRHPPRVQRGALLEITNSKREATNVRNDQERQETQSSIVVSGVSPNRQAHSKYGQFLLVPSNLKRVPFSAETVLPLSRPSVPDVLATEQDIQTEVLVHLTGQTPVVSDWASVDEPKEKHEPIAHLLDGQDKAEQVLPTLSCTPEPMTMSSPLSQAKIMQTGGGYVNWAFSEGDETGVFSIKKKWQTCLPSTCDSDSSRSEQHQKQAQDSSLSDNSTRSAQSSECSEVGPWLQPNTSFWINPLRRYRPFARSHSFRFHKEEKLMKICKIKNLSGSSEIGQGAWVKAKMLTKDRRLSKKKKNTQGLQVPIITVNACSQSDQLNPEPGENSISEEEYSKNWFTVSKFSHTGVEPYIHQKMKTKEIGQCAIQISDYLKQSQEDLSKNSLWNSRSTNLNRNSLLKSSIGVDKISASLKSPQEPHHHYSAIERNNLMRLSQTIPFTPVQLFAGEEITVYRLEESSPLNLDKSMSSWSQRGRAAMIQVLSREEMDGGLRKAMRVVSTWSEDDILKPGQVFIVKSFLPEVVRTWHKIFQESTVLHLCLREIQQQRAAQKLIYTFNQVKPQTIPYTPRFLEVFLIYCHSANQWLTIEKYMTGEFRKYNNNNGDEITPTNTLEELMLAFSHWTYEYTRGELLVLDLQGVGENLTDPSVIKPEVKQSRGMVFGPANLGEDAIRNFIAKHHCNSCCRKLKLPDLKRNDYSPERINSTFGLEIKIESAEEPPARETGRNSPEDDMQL
Chain of UniProt O15146 (whole entry, looked up): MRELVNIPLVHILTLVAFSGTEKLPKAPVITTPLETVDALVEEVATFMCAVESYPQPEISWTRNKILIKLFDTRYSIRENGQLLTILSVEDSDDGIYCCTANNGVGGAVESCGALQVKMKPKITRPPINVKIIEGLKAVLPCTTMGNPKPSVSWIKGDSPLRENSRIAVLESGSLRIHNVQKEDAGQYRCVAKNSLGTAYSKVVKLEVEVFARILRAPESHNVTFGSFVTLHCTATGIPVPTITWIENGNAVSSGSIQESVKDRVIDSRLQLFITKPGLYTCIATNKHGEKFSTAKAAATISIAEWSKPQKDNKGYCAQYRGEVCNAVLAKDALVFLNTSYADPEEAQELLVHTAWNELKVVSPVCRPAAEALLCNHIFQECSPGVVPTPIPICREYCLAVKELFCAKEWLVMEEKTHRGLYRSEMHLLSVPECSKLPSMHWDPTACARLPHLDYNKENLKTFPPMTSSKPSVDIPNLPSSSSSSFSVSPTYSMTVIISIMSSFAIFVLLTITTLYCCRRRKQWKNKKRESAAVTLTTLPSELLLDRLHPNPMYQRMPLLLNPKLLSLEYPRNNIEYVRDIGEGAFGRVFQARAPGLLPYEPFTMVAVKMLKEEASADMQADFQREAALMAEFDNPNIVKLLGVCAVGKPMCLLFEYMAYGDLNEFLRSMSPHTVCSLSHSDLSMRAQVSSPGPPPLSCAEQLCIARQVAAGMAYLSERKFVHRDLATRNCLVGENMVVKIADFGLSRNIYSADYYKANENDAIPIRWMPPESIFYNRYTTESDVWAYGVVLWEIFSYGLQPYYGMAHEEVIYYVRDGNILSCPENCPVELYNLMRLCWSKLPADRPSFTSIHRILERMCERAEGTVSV
Chain of UniProt Q9BQI3 (whole entry, looked up): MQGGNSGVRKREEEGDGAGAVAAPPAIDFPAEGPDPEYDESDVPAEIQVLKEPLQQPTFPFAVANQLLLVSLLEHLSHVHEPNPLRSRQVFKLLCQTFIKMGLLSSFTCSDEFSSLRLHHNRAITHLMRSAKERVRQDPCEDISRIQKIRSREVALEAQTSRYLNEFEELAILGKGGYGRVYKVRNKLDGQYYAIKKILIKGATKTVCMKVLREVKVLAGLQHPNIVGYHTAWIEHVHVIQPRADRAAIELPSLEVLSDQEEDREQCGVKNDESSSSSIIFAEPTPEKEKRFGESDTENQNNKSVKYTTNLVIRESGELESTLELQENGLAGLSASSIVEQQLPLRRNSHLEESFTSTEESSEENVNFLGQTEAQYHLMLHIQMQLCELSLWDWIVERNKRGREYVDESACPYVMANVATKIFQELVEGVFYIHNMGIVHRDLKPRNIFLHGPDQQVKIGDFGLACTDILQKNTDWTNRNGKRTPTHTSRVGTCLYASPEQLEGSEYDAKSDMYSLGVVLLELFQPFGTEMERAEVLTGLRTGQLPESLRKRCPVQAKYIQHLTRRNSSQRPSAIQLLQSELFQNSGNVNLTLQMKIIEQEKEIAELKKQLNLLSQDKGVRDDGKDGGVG

Set 1
SMILES: CC(C)n1cnc(-c2ccc(F)cc2)c1-c1ncc(C(=O)Nc2ccc(N3CCN(C)CC3)cc2)[nH]1
Technique: phase 2a clinical trial
Host: patients with idiopathic pulmonary fibrosis
test | setting | patients with treatment-emergent adverse events [%]
measured: left bundle branch block | 30 mg once daily, Grade 3 | 0
measured: protein urine present | 60 mg once daily, Grade 1 | 0
measured: left bundle branch block | 60 mg once daily, Grade 1 | 0
measured: electrocardiogram T wave abnormal | 60 mg once daily, Grade 4 | 0
measured: drug-induced liver injury | dose not given, Grade 2, all drug arms total | 0

Set 2
Organism: Sarcocystis neurona
Observed: parasite growth
Concentration: 10 µM
Time: 96 h
Notes: first screen
Reference: untreated
Structure (SMILES) | log2 fold change
CC(=O)S[C@@H]1CC2=CC(=O)CC[C@]2(C)[C@H]2CC[C@@]3(C)[C@@H](CC[C@@]34CCC(=O)O4)[C@H]12 | -0.09
CCc1nn(CCCN2CCN(c3cccc(Cl)c3)CC2)c(=O)n1CCOc1ccccc1 | -2.03
CCOC(=O)c1ncn2c1CN(C)C(=O)c1cc(F)ccc1-2 | 0.45
C[C@H]1COc2c(N3CCN(C)CC3)c(F)cc3c(=O)c(C(=O)O)cn1c23 | -0.32
CCCCC[C@H](O)/C=C/[C@H]1[C@H](O)CC(=O)[C@@H]1CCCCCCC(=O)O | 0.17
CC(C)(C)NC(=O)[C@H]1CC[C@H]2[C@@H]3CC[C@H]4NC(=O)C=C[C@]4(C)[C@H]3CC[C@]12C | -1.16
CC(=O)[C@H]1CC[C@H]2[C@@H]3C[C@H](C)C4=CC(=O)CC[C@]4(C)[C@H]3[C@@H](O)C[C@]12C | 0.29

Set 3
Cell line: mouse MPNST tumor cells
Technique: high-content nuclear imaging
Measured: cell number
Concentration: 10 µM
Time: 12 h
Notes: mean of 2 replicates
Reference: plate mean
Reading: higher = more cells
SMILES | nuclei count [z-score]
Cc1cnc(NC(=O)c2cc(S(=O)(=O)N(C)C)ccc2N2CCCC2)s1 | -3.08
CC(C)(C)NC(=O)[C@@H]1CN(Cc2cccnc2)CCN1C[C@@H](O)C[C@@H](Cc1ccccc1)C(=O)N[C@H]1c2ccccc2C[C@H]1O | 1.61
CC(=O)N(O)CCCCCNC(=O)CCC(=O)N(O)CCCCCNC(=O)CCC(=O)N(O)CCCCCN | -0.595
CC(C)(N)C(=O)N[C@H](COCc1ccccc1)C(=O)N1CCC2(CC1)CN(S(C)(=O)=O)c1ccccc12 | 0.706
CC(C)CCn1c(CN2CCN(C(=O)C3CC3)CC2)nc2c1c(=O)n(C)c(=O)n2C | 0.689

Set 4
Host: human
Sample: microsomes or S9
Concentration: 2 µM
Time: 0.5 h
SMILES | remaining compound [%]
COc1nc(OC)c2nno/c(=N\Cc3ccc(F)cc3)c2n1 | 78.7
O=C(N1CCn2c1nc1ccccc12)C1(c2cccs2)CCCC1 | 0.383
O=c1c(/C=N/Nc2nc3ccccc3s2)c(C(F)(F)F)[nH]n1-c1nc2ccccc2s1 | > 99
Oc1ccc(-c2nccn2Cc2csc(-c3ncccn3)n2)cc1 | 92.3
CNCc1cccc(Br)c1OCCS(C)(=O)=O | 64.6
COc1ccccc1N1C(=O)c2cc3ccccc3n2CC1(C)C(=O)NC1CCCCCCC1 (centres unmarked) | 0.562
Cc1ncsc1CCOC(=O)c1ccc(Cl)cc1 | 0.204

Set 5
Structure (SMILES): Cc1nc(Cc2cccc(C(F)(F)F)c2)sc1-c1ccc(C(N)=O)nc1
Technique: competition with immobilised ligand
Concentration: 1 µM
target | test | remaining binding [%]
Tyrosine-protein kinase ABL1, non-phosphorylated (ABL1, Homo sapiens, UniProt P00519, F317I) | binding | 100
CAMK1D (Homo sapiens, UniProt Q8IU85) | cell-free assay | 94
FLT3 (Homo sapiens, UniProt P36888, F691L/ITD) | cell-free assay | 100
MYLK3 (Homo sapiens, UniProt Q32MK0) | cell-free assay | 81
PIK3CA (Homo sapiens, UniProt P42336, I800L) | cell-free assay | 56
ZAP70 (Homo sapiens, UniProt P43403) | cell-free assay | 93
TESK1 (Homo sapiens, UniProt Q15569) | cell-free assay | 88
STK17A (Homo sapiens, UniProt Q9UEE5) | cell-free assay | 82
NUAK1 (Homo sapiens, UniProt O60285) | cell-free assay | 86
MAPK8 (Homo sapiens, UniProt P45983) | cell-free assay | 90
ALK (Homo sapiens, UniProt Q9UM73, L1196M) | cell-free assay | 100
ULK2 (Homo sapiens, UniProt Q8IYT8) | cell-free assay | 100
Mast/stem cell growth factor receptor Kit, autoinhibited (KIT, Homo sapiens, UniProt P10721) | cell-free assay | 100
BRSK2 (Homo sapiens, UniProt Q8IWQ3) | cell-free assay | 72
CHEK2 (Homo sapiens, UniProt O96017) | cell-free assay | 100
HIPK4 (Homo sapiens, UniProt Q8NE63) | cell-free assay | 100
EIF2AK1 (Homo sapiens, UniProt Q9BQI3) | cell-free assay | 100
NTRK3 (Homo sapiens, UniProt Q16288) | cell-free assay | 69
IKBKB (Homo sapiens, UniProt O14920) | cell-free assay | 72
TRPM6 (Homo sapiens, UniProt Q9BX84) | cell-free assay | 88
MUSK (Homo sapiens, UniProt O15146) | cell-free assay | 89
PRKAA1 (Homo sapiens, UniProt Q13131) | cell-free assay | 100
Tyrosine-protein kinase ABL1, phosphorylated (ABL1, Homo sapiens, UniProt P00519, H396P) | cell-free assay | 96
CDK18 (Homo sapiens, UniProt Q07002) | cell-free assay | 100

Set 6
Target: Beta-1 adrenergic receptor (ADRB1, Homo sapiens, UniProt P08588)
Chain of UniProt P08588 (whole entry, looked up): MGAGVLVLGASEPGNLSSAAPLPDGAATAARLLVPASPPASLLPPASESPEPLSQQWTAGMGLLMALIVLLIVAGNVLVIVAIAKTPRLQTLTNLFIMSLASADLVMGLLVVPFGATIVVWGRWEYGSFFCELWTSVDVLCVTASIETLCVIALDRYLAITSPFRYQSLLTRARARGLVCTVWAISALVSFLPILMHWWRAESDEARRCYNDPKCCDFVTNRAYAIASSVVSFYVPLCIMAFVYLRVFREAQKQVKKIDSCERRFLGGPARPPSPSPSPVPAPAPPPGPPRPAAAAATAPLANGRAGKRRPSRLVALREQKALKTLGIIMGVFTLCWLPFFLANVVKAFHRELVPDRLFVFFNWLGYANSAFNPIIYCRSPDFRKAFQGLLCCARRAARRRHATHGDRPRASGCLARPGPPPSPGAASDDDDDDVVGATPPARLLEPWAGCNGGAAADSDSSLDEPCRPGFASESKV
Mode: agonist
Compound | EC50
O=C(Nc1ccc([C@@H](O)[C@H]2COCC(=O)N2CC2CC2)cc1)c1ccc(F)cc1 | ≥ 100 µM
COc1ccccc1N1CCN([C@@H]2[C@H](O)[C@H](CO)O[C@@H]2CNC(=O)c2ccc(F)c(Cl)c2)CC1 | ≥ 100 µM
O=C1CCn2nnc(CNc3cccc(C(F)(F)F)c3)c2CN1Cc1ccccc1 | ≥ 100 µM
CN(C)c1cccc(-c2ncc3c(n2)OCCN(c2ccccc2)C3=O)c1 | ≥ 100 µM
COc1ccccc1N1CCN(C(=O)c2cc(Br)c[nH]2)CC1 | ≥ 100 µM

Some of these lines once more (set 6):
Compound | EC50
CN(C)c1cccc(-c2ncc3c(n2)OCCN(c2ccccc2)C3=O)c1 | ≥ 100 µM
COc1ccccc1N1CCN(C(=O)c2cc(Br)c[nH]2)CC1 | ≥ 100 µM
O=C(Nc1ccc([C@@H](O)[C@H]2COCC(=O)N2CC2CC2)cc1)c1ccc(F)cc1 | ≥ 100 µM
O=C1CCn2nnc(CNc3cccc(C(F)(F)F)c3)c2CN1Cc1ccccc1 | ≥ 100 µM
COc1ccccc1N1CCN([C@@H]2[C@H](O)[C@H](CO)O[C@@H]2CNC(=O)c2ccc(F)c(Cl)c2)CC1 | ≥ 100 µM
